Experimental data gathered from unrelated publications.
Compare with care: the assays were run in different laboratories. ± marks the error that the study gave.
UniProt P78417, sequence (whole entry, looked up): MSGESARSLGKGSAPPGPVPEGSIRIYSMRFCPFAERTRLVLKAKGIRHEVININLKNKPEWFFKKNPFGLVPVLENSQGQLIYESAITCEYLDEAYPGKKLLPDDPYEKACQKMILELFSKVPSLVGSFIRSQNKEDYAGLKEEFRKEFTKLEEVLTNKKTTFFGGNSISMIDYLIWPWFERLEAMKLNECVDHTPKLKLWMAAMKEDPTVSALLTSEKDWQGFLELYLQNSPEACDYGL
UniProt Q8VHL0, sequence (whole entry, looked up): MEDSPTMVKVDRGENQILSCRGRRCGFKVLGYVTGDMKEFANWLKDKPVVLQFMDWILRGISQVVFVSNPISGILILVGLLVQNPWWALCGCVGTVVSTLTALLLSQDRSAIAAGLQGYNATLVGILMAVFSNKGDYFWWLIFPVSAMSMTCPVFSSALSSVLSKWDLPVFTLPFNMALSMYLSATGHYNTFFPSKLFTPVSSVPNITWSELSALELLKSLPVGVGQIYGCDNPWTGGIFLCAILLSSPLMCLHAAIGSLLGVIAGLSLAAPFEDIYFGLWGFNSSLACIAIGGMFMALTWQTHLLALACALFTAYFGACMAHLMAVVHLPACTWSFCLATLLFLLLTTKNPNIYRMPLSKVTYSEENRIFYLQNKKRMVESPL
UniProt P28062, sequence (whole entry, looked up): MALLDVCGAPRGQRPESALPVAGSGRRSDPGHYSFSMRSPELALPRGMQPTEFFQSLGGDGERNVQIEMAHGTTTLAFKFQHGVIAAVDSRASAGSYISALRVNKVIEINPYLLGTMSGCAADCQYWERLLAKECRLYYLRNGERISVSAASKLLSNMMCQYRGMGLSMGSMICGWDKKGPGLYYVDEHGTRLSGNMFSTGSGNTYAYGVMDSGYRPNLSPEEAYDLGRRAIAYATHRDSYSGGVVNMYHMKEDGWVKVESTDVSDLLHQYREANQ
UniProt P53341, sequence (whole entry, looked up): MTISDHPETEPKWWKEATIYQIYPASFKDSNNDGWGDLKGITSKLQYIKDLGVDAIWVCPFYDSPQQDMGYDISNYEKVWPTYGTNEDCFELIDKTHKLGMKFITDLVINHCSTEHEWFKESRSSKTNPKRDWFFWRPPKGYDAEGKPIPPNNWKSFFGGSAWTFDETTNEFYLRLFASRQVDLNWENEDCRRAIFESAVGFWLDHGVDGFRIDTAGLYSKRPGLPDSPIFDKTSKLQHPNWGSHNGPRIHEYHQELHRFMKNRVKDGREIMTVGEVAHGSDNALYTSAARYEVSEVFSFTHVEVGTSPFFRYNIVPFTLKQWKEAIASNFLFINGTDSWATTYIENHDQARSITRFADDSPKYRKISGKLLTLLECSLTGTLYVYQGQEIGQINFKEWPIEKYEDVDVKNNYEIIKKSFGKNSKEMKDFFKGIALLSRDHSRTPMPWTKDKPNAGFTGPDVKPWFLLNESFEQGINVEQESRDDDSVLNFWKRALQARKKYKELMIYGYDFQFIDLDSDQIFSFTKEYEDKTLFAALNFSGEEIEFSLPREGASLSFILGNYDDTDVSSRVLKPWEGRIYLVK
UniProt Q03468, sequence (whole entry, looked up): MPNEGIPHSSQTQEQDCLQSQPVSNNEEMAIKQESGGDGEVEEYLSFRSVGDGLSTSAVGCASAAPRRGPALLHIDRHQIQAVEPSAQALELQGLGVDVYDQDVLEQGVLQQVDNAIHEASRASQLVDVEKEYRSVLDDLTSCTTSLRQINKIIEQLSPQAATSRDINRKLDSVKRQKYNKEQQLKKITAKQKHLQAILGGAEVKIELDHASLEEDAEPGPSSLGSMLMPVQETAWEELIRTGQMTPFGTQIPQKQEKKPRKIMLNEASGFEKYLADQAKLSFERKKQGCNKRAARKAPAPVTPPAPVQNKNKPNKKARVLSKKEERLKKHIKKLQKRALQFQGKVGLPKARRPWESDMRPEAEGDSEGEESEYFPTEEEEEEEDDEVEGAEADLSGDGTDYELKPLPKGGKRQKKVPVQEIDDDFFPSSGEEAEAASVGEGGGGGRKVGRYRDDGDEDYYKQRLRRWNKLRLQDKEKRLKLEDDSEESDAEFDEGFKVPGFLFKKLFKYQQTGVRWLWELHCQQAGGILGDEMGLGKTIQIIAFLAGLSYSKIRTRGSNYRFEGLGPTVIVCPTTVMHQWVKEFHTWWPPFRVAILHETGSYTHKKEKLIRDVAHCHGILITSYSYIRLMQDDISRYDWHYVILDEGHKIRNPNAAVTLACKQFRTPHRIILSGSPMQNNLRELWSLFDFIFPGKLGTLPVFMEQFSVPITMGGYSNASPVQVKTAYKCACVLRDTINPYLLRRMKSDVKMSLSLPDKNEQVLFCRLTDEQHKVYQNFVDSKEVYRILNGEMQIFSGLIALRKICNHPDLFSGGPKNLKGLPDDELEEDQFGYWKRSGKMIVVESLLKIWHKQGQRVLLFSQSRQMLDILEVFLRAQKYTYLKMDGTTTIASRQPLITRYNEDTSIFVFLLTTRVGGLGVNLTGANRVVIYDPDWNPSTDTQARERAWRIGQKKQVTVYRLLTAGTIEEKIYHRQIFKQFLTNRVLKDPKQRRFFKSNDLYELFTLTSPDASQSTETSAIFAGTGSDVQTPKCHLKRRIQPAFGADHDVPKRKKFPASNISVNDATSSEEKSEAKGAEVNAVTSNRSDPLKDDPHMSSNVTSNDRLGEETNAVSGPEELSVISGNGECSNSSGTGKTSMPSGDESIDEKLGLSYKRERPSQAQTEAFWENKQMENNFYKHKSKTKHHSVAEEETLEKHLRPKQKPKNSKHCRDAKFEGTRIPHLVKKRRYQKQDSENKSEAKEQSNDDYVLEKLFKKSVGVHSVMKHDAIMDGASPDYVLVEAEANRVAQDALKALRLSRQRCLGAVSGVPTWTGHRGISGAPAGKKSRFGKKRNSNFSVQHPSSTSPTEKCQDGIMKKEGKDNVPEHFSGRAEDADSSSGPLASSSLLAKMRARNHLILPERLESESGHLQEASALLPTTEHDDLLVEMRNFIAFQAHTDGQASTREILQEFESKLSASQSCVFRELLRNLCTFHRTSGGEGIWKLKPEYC
UniProt P25023, sequence (whole entry, looked up): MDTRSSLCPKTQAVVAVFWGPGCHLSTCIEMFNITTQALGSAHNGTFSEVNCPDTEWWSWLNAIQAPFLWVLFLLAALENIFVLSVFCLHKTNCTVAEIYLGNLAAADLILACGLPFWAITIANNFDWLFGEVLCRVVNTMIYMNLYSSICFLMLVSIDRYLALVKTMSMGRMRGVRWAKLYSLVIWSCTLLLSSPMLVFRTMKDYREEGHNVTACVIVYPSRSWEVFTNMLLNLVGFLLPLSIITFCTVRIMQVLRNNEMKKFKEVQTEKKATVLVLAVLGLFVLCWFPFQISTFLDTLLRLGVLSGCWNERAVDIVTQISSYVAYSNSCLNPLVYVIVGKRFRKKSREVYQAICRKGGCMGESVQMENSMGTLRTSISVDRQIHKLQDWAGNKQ
UniProt Q9Y294, sequence (whole entry, looked up): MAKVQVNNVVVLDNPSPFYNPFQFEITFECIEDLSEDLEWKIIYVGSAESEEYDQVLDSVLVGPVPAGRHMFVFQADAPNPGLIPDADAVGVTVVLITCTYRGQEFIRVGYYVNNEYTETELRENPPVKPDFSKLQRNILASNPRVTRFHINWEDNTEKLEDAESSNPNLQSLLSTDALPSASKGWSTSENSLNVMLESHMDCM
UniProt P20618, sequence (whole entry, looked up): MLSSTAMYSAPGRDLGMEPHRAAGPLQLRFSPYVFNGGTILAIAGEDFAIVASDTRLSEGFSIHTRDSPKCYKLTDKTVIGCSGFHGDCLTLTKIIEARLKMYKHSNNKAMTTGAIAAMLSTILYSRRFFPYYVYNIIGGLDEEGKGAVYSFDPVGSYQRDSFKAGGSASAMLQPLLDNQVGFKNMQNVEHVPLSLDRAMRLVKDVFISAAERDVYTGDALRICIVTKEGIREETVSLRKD
UniProt Q04609, sequence (whole entry, looked up): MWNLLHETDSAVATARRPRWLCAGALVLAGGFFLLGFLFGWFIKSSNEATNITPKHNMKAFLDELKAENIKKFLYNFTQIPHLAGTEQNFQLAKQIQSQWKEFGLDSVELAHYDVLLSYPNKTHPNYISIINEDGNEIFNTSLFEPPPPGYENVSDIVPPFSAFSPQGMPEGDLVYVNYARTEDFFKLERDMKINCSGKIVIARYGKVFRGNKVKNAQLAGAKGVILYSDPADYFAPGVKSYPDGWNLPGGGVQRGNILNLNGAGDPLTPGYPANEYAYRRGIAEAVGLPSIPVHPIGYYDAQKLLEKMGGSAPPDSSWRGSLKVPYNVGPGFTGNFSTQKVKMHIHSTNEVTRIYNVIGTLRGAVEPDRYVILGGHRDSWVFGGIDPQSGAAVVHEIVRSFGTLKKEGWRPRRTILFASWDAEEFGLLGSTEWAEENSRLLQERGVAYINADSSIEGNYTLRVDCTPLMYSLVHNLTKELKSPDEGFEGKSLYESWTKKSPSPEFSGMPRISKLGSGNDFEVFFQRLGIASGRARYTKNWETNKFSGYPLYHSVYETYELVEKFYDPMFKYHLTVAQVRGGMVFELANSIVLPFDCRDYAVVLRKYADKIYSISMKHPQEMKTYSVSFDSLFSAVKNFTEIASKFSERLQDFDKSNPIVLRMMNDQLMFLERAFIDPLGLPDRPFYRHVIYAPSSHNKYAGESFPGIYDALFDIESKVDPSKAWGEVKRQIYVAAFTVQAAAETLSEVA

Structure (SMILES) = N=C(N)NCCC[C@H](NC(=O)[C@H](Cc1ccccc1)NC(=O)[C@@H]1CCCN1C(=O)[C@H](CO)NC(=O)[C@H](Cc1ccccc1)NC(=O)CNC(=O)[C@@H]1CCCN1C(=O)[C@@H]1CCCN1C(=O)[C@@H](N)CCCNC(=N)N)C(=O)O; target = B2 bradykinin receptor (Rattus norvegicus, UniProt P25023); test = inositol phosphate accumulation, agonist; test system = primary rat trigeminal ganglion cells; endpoint = Emax; value = 47 ± 3 % above basal
Structure (SMILES) = CCOC(=O)c1cc2c(N)c(C(=O)OC)sc2nc1C; target = Urea transporter 1 (Mus musculus, UniProt Q8VHL0); test = urea permeability, osmotic lysis; test system = mouse erythrocytes; endpoint = maximal inhibition; value = > 80%
Structure (SMILES) = CC[C@H](C)[C@H](NC(=O)[C@H](CCCNC(=N)N)NC(=O)[C@H](CCCNC(=N)N)NC(=O)[C@H](C)NC(=O)[C@H](CC(C)C)NC(=O)[C@H](CCCNC(=N)N)NC(=O)[C@H](C)NC(=O)[C@H](Cc1c[nH]c2ccccc12)NC(=O)[C@H](CCCCN)NC(=O)[C@H](CCC(=O)O)NC(=O)[C@H](CCC(=O)O)NC(=O)[C@@H](NC(=O)[C@H](CO)NC(=O)[C@H](C)NC(C)=O)[C@@H](C)O)C(=O)N[C@@H](C)C(=O)NCC(N)=O; target = Histone chaperone ASF1A (Homo sapiens, UniProt Q9Y294); test = isothermal titration calorimetry; conditions = concentration not given, pH 7.5, 20 °C; endpoint = binding stoichiometry; value = 1 ± 0.1
Structure (SMILES) = CN(C)S(=O)(=O)c1ccc(S(=O)(=O)N2CCC(n3c(=O)[nH]c4ccccc43)CC2)cc1; target = DNA excision repair protein ERCC-6 (ERCC6, Homo sapiens, UniProt Q03468); conditions = 100 µM; endpoint = ATPase activity; value = no effect
Structure (SMILES) = O=C(CCl)N(CCNC(=O)C(F)(F)F)c1ccc([N+](=O)[O-])cc1; target = GSTO1 (Homo sapiens, UniProt P78417); test = probe labelling, inhibitor, competitive ABPP; test system = MDA-MB-435; conditions = 1 µM, 18 h, serum-containing medium; endpoint = inhibition; value = 25%
Structure (SMILES) = O=C(N[C@@H](Cc1coc2ccccc12)B(O)O)[C@@H]1C[C@H]2CC[C@@H]1O2; target = Proteasome component C5/PSMB8 (Homo sapiens, UniProt P20618+P28062); test system = mouse, U266B1 xenograft, tumour; conditions = oral, 10 and 30 mg/kg single; endpoint = duration of maximal inhibition; value = ≥ 24 h
Structure (SMILES) = O=C([O-])CN(CCN(CC(=O)[O-])Cc1cc(CCC(=O)NCCCCCC(=O)NCCCC[C@H](NC(=O)N[C@@H](CCC(=O)O)C(=O)O)C(=O)O)ccc1O)Cc1cc(CCC(=O)O)ccc1[O-].[68Ga+3]; target = FOLH1 (Homo sapiens, UniProt Q04609); test = PET/CT; test system = prostate cancer patients, bone metastases; conditions = 60 min post-injection; endpoint = SUVmax; value = 16.1 ± 13.2
Structure (SMILES) = C=C1C(=O)O[C@@H]2[C@H]3C(CO)=CC(=O)C3=C(C)C[C@H](OC(=O)Cc3ccc(O)cc3)[C@@H]12; target = MAL12 (Saccharomyces cerevisiae S288c, UniProt P53341); test = enzyme activity, inhibitor; conditions = 65.22 µM; endpoint = Vmax; value = 0.022 mM/min

For quick reference, copied from above:
Structure (SMILES) = C=C1C(=O)O[C@@H]2[C@H]3C(CO)=CC(=O)C3=C(C)C[C@H](OC(=O)Cc3ccc(O)cc3)[C@@H]12; target = MAL12 (Saccharomyces cerevisiae S288c, UniProt P53341); test = enzyme activity, inhibitor; conditions = 65.22 µM; endpoint = Vmax; value = 0.022 mM/min
